Experimental data pooled from the literature.
Lines come from different studies, so protocols differ. Values joined by “and” are separate records of one study, mostly repeats; a detail may differ. ± gives the spread as reported.

`CC#CC(=O)N[C@H]1CCCN(c2c(F)cc(C(N)=O)c3[nH]c(C)c(C)c23)C1` gave an adverse events of 16.7% (healthy volunteers; oral, 0.3 mg once daily, 14 days, MAD phase I).
For `CC(C)n1c(Nc2cccnc2)nc2cnc(Nc3ccc(N4CCN(C)CC4)cc3)nc21`, “incidence of CPK increased TEAE” read 11.9% (healthy male humans; oral, dose not given, drug interaction study, all arms).
The plasma concentration of `CCN1CCN(Cc2ccc(NC(=O)c3ccc(C)c(NC(=O)c4cncc(-c5cccs5)c4)c3)cc2C(F)(F)F)CC1` is reported as 552 ng/mL and 532 ng/mL and 956 ng/mL (LC-MS/MS; C57BL/6 mouse, plasma; intraperitoneal, 30 mg/kg single dose, 0.25 h).
`O=C(Nc1cnccc1Cl)N1CCN(Cc2ccc3c(c2)OC(F)(F)O3)CC1` — result for “volunteers with adverse event”: 0% (refers to: Presyncope; healthy elderly humans; 100 mg once daily, 10 days).
`CCCCCCC#Cc1cncc(-c2nnc(SCc3ccc(Cl)cc3)n2C2CC2)c1` has a CC50 of 25 ± 2.45 µM (African green monkey cells; 72 h).
`O=C1NCCc2nc(OCc3cccc(F)c3)ccc21` — result for “rigid stance score”: 0 (modified Irwin test; Sprague-Dawley rat, male; oral, 100 mg/kg, 1 h; higher = stronger effect).
Under “peripheral clearance (Q/F)”, `NC(N)=NCCC[C@@H](N)C(=O)N[C@@H](CCCN=C(N)N)C(=O)N1CCC[C@H]1C(=O)N1C[C@H](O)C[C@H]1C(=O)NCC(=O)N[C@@H](Cc1cccs1)C(=O)N[C@@H](CO)C(=O)N1Cc2ccccc2C[C@@H]1C(=O)N1[C@H](C(=O)N[C@@H](CCCN=C(N)N)C(=O)O)C[C@@H]2CCCC[C@@H]21` is recorded as 0.397 L/h (popPK base model typical value; human; subcutaneous, reference weight 70 kg).
`CC(C)(C(=O)N1CCOc2c(C#N)cncc2C1)C(F)F`: “subjects with TEAE” 0% (refers to: blood creatine phosphokinase increased; healthy humans, both sexes; oral, 20 mg single dose).
`CN[C@H](CC(C)C)C(=O)N[C@H]1C(=O)N[C@@H](CC(N)=O)C(=O)N[C@H]2C(=O)N[C@H]3C(=O)N[C@H](C(=O)N[C@H](C(=O)O)c4cc(O)cc(O)c4-c4cc3ccc4O)[C@H](O)c3ccc(c(Cl)c3)Oc3cc2cc(c3O[C@@H]2O[C@H](CO)[C@@H](O)[C@H](O)[C@H]2O[C@H]2C[C@](C)(N)[C@H](O)[C@H](C)O2)Oc2ccc(cc2Cl)[C@H]1O` — result for “absorption rate constant”: 0.25 h⁻¹ (electrochemical aptamer sensor; male C57BL/6J mouse, thalamus; intravenous bolus, 35 mg/kg).
For `CNC(=O)c1ccc(-c2cnc3ncc(Cc4ccc5ncccc5c4)n3n2)cc1F`, “AST increased patients” read 11% (Japanese patients; oral, 400 mg, any grade).
`CC(C)(C)c1ccc(C(O)CCCN2CCC(C(O)(c3ccccc3)c3ccccc3)CC2)cc1` (centres unmarked) has a heart rate of 221 ± 0.5 beats/min (male Hartley guinea pigs, anaesthetized; intravenous, 1 mg/kg group, baseline before infusion).
Under CSF concentration, `O=C(O)CCc1cccc(O)c1` is recorded as “not detected” (human CSF; concentration not given, mean).
The EC50 of `CCCCCNCc1ccc(CNC(=O)c2csc3nc[nH]c(=O)c23)cc1` is reported as over 100 µM (haemolysis; human red blood cells; 1 h, 37 °C).
For `COc1ccc2c(=O)n(C)c(-c3ccccc3)nc2c1`, the tissue/plasma ratio was 1.33 (Sprague-Dawley rat, male, testis; oral, 30 mg/kg, 0.5 h; baseline: testis over plasma).
With `CN(C(=O)n1cnc(-c2cccnc2)c1)C1CCCCC1` the tissue concentration was 8.8 ± 0.3 ng/g (Wistar rat, midbrain; oral, 10 mg/kg, 24 h, single dose).
The uptake of `[18F]c1ccc(-c2ccc3c(c2)[nH]c2ccncc23)cn1` is reported as 0.469 ± 0.087 SUV (ex vivo biodistribution; APP/PS1 Alzheimer mice, cecum; intravenous, 30 min).
Under “urinary magnesium excretion change”, `Cc1ccc([C@@H]2O[C@H](CO)[C@@H](O)[C@H](O)[C@H]2O)cc1Cc1ccc(-c2ccc(F)cc2)s1` is recorded as 8.82 mg (Japanese type 2 diabetes patients; 100 mg, day 15, 24 h urine collection; baseline: baseline).
Under “share of ECG observations”, `CCOc1c([C@H](C)n2nc(C)c3c(N)ncnc32)cc(Cl)c(F)c1[C@@H]1CNC(=O)C1` is recorded as 99.2% (refers to: ΔQTcF ≤ 30 ms; previously treated B-cell malignancy; oral, 30 mg once daily, overall population).
`OC[C@H]1O[C@@H](c2ccc(Cl)c(Cc3ccc(O[C@H]4CCOC4)cc3)c2)[C@H](O)[C@@H](O)[C@@H]1O` — result for “change in uric acid”: -0.49 µmol/L (Japanese type 1 diabetes patients, blood; 2.5 mg, day 28; baseline: baseline).
`C[C@@H](Nc1cc(F)cc(F)c1)c1cc(C(=O)N(C)C)cc2c(=O)cc(N3CCOCC3)oc12` — result for “related serious adverse events”: 1.6% (refers to: Neutropenia; advanced solid tumour patients; oral, dose not given, dose finding).
`CC1=NN(c2ccccc2)C(=O)C1` has a tissue concentration of 290 ± 76.1 ng/mL (rat Sprague-Dawley pups PN4, left cerebral cortex; intraperitoneal, 30 mg/kg, 1 h).
Under CSF concentration, `O=c1c(O)c(-c2ccc(O)c(O)c2)oc2cc(O)cc(O)c12` is recorded as “not detected” (human CSF; concentration not given, mean).
Under “systolic blood pressure”, `C[C@@H](O)CCOC(=O)C[C@@H](C)O` is recorded as 114 mmHg (human; oral drink, dose not given, 180 min post dose, mean).
The half-life of `Cl.[2H]C([2H])([2H])CC(=O)c1cnc(NC(=O)C2CC2)cc1Nc1cccc(-c2ncn(C([2H])([2H])[2H])n2)c1OC` is reported as 9.65 h (geometric mean; human; oral, 10 mg once daily, day 7, fasted, liquid, multiple dose).
`C=CC(=O)NC1CCN(c2ncc3ncnc(Nc4ccc(Oc5ccc6c(c5)ncn6C)c(C)c4)c3n2)CC1` gave an AUC0-24 ratio of 0.781 (healthy male volunteers, plasma; oral solution, 60 mg; baseline: compound over total radioactivity).
For `C=CC(=O)Nc1cc(Nc2nccc(-c3cn(C)c4ccccc34)n2)c(OC)cc1N(C)CCN(C)C`, the recovery was 92.1% (storage stability; human plasma; 72 h, -80 °C, high QC level).
With `CCCCc1oc2ccccc2c1C(=O)c1cc(I)c(OCCN(CC)CC)c(I)c1` the heart rate was 200 ± 0.7 beats/min (male Hartley guinea pigs, anaesthetized; intravenous, 10 mg/kg over 10 min, after infusion).
`CCc1c(-c2ccccc2)c(-c2ccccc2)nn1-c1ccccc1-c1cccc(OCC(=O)O)c1` has an MRT(0-t) of 0.658 h and 0.845 h and 0.653 h (Sprague-Dawley rat; intravenous).
`CC(=O)Oc1ccccc1C(=O)O` gave a heart rate of 267 ± 0.5 beats/min (male Hartley guinea pigs, anaesthetized; intravenous, 10 mg/kg group, baseline before infusion).
The SUV of `CNc1ccc(-c2nc3ccc(O)cc3s2)cc1` [carbon-11 labelled] is reported as 0.203 ± 0.067 (microPET/CT imaging; APP/PS1 mouse, AD model, brain; intravenous, 20 min).
The MRT(0-inf) of `CS(=O)(=O)c1ccc([C@@H](O)[C@@H](CF)NC(=O)C(Cl)Cl)cc1` is reported as 3.87 ± 0.57 h (chicken (Arbor Acres), plasma; oral, 20 mg/kg, with: quercetin 20 mg/kg pretreatment).
With `COc1ncc(-c2nc3c(n2C(C)C)[C@H](c2ccc(Cl)cc2)N(c2cc(Cl)cn(C)c2=O)C3=O)c(OC)n1` the median Tmax was 4.1 h (human patients, plasma; oral, 400 mg, high-dose arm, cycle 2 day 1).
`Cn1cc(Nc2nccc(-c3ccc4c(c3)CN(C3COC3)CC[C@H]4NC(=O)c3cn(C(C)(C)C)nn3)n2)cn1`: “non-switched memory B cell change” 19.4% (human, whole blood; 300 mg twice daily, day 14; baseline: pre-dose baseline).
`CO[C@@H]1[C@H](OC(=O)N2CC(CCN3CCOCC3)C2)CC[C@]2(CO2)[C@H]1[C@@]1(C)O[C@@H]1CC=C(C)C` — result for “systolic blood pressure”: 2.1 ± 9 mmHg (humans; subcutaneous, 0.6 mg twice weekly for 4 weeks, day 28; baseline: baseline).
Under “parent drug release”, `COc1cc(C2=CCCCc3c2ccc(OC)c3OC(C)c2ccc([N+](=O)[O-])s2)cc(OC)c1OC` (centres unmarked) is recorded as 0% (non-enzymatic, no POR; phosphate buffer; 24 h, pH 7.4).
`CCN1/C(=C/C(C)=O)Sc2ccc(F)cc21`: “mean blood pressure change” 96.6 ± 2.5% (cynomolgus monkey; oral, 100 mg/kg, 1 h post-dose; baseline: pre-dose).
`O=C1CC[C@H](N2Cc3cc(N4CCN(CC5CCN(c6ccc([C@@H]7c8ccc(O)cc8CC[C@@H]7c7ccccc7)cc6)CC5)CC4)ccc3C2=O)C(=O)N1` gave a recovery of 109% (rapid equilibrium dialysis; SD rat hepatocytes; 2.5 µM, 6 h).
`O=C(O)CCC(=O)O.[2H]C([2H])([2H])Oc1cc(C)c2[nH]ccc2c1CN1CC[C@@H](C2CC2)C[C@H]1c1ccc(C(=O)O)cc1` has an AUC(0-tau) of 35000 ng·h/mL (human, plasma; 200 mg once daily, day 1, multiple ascending dose, geometric mean).
`Cc1cc(NC2CCN(C(=O)OC3CCN(C(=O)/C=C/CN(C)C)C3)CC2)n2ncc(C(C)C)c2n1` (centres unmarked) — result for “patients with adverse event”: 0% (Phase I dose escalation CTCAE v4.0, refers to: peripheral oedema; patients with advanced solid tumours; dose not given, TIW dosing grade 3 or higher).
For `O=C(Nc1nc2cccc(-c3ccc(CN4CCS(=O)(=O)CC4)cc3)n2n1)C1CC1`, “treatment-emergent adverse events” read 0% (refers to: pharyngitis; human rheumatoid arthritis patients; oral, 300 mg once daily, 4 weeks, regardless of relatedness).
`O=C(O)c1c(O)cccc1O` — result for CSF concentration: “not detected” (human CSF; concentration not given, mean).
With `CN(C(=O)n1cnc(-c2cccnc2)c1)[C@H]1CC[C@H](O)CC1` the concentration was 16.9 ± 1.4 ng/g (Wistar rat, pons; oral, 10 mg/kg/day of BIA 10-2474, 24 h, repeated 5 days).
`C=CC(=O)Nc1cc(Nc2nccc(-c3cn(C4CC4)c4ccccc34)n2)c(OC)cc1N(C)CCN(C)C` gave an NEUT percentage of 37.7 ± 5.3% (BALB/c nude mouse, LU0387 xenograft, blood; oral, 40 mg/kg).
For `N#Cc1ccc(-c2cnc3ccc(-c4ccc(C(=O)N5CCOCC5)cc4)cn23)cc1`, “placebo-corrected heart rate change” read 0.1 bpm (healthy volunteers; oral, 20 mg, fasted, time-averaged).

Excerpt of the above:
`C[C@@H](Nc1cc(F)cc(F)c1)c1cc(C(=O)N(C)C)cc2c(=O)cc(N3CCOCC3)oc12` — result for “related serious adverse events”: 1.6% (refers to: Neutropenia; advanced solid tumour patients; oral, dose not given, dose finding).
`CC1=NN(c2ccccc2)C(=O)C1` has a tissue concentration of 290 ± 76.1 ng/mL (rat Sprague-Dawley pups PN4, left cerebral cortex; intraperitoneal, 30 mg/kg, 1 h).
Under CSF concentration, `O=c1c(O)c(-c2ccc(O)c(O)c2)oc2cc(O)cc(O)c12` is recorded as “not detected” (human CSF; concentration not given, mean).
Under “systolic blood pressure”, `C[C@@H](O)CCOC(=O)C[C@@H](C)O` is recorded as 114 mmHg (human; oral drink, dose not given, 180 min post dose, mean).
The half-life of `Cl.[2H]C([2H])([2H])CC(=O)c1cnc(NC(=O)C2CC2)cc1Nc1cccc(-c2ncn(C([2H])([2H])[2H])n2)c1OC` is reported as 9.65 h (geometric mean; human; oral, 10 mg once daily, day 7, fasted, liquid, multiple dose).
`C=CC(=O)NC1CCN(c2ncc3ncnc(Nc4ccc(Oc5ccc6c(c5)ncn6C)c(C)c4)c3n2)CC1` gave an AUC0-24 ratio of 0.781 (healthy male volunteers, plasma; oral solution, 60 mg; baseline: compound over total radioactivity).
For `C=CC(=O)Nc1cc(Nc2nccc(-c3cn(C)c4ccccc34)n2)c(OC)cc1N(C)CCN(C)C`, the recovery was 92.1% (storage stability; human plasma; 72 h, -80 °C, high QC level).
